Assay results from different studies.
Lines come from different studies, so protocols differ. Several values in a cell are separate wells, animals, samples, runs or records. ± marks the error that the study gave.

Structure (SMILES)	tested on	assay	test system	conditions	how to read	measurement	result
C=CC(=O)Nc1cccc(Cn2ncc3cnc(Nc4cnn(CCOC)c4)nc32)c1	MYLK4 human	binding, KINOMEscan		100 nM	lower = stronger binding	percent of control	85%
COc1ccc(Nc2nc(Nc3ccc(OCCOCCOCC[18F])cc3)ncc2Br)cc1			ICR mice, S180 tumour-bearing, muscle	intravenous, 370 kBq, 15 min		tissue uptake	2.55 ± 0.23 %ID/g
O=C(NCC1OC2CCC=CCCC2O1)c1ccc([18F])nc1 (stereo not drawn)			healthy female BALB/c nude mice, bone	intravenous, 7.4 MBq per mouse, 120 min		tissue uptake	2.4 ± 1.1 %ID/g
CC(C)C[C@H](NC(=O)[C@@H](CCCCNC(=O)[C@@H](Cc1ccccc1)NC(=O)CCCCCCCNC(=O)CN1CCN(CC(=O)O)CCN(CC(=O)O)CCN(CC(=O)O)CC1)NC(=O)[C@H](Cc1ccc(O)cc1)NC(=O)[C@H](CO)NC(=O)[C@H](Cc1c[nH]c2ccccc12)NC(=O)[C@H](Cc1c[nH]cn1)NC(=O)[C@@H]1CCC(=O)N1)C(=O)N[C@@H](CCCNC(=N)N)C(=O)N1CCC[C@H]1C(=O)NCC(N)=O [indium-111 labelled]		biodistribution	male athymic nude mice, DU-145 prostate cancer xenograft, heart	intravenous, 0.037 MBq, 2 h post-injection		tissue uptake	0.11 ± 0.06 %ID/g
COc1ccc2c(c1)C(C)(C)C(/C=C/C1=C(Oc3ccc(C(=O)NCCCCOc4cc(CN(Cc5ccccn5)Cc5ccccn5)cc(CN(Cc5ccccn5)Cc5ccccn5)c4)cc3)C(=C/C=C3/N(CCCCS(=O)(=O)[O-])c4ccc(OC)cc4C3(C)C)CCC1)=[N+]2CCCCS(=O)(=O)[O-].O=[N+]([O-])[O-].O=[N+]([O-])[O-].[99Tc+].[C-]#[O+].[C-]#[O+].[C-]#[O+].[Zn+2]			BALB/c mouse, Staphylococcus aureus myositis, spleen	12 h		tissue uptake	0.6 %ID/g and 11.8 %ID/g and 19.5 %ID/g and 5.69 %ID/g
COc1cccc(OC)c1-c1cc(C(=O)NC2(C(=O)O)C3CC4CC(C3)CC2C4)nn1-c1ccc(C(=O)N(C)CCCN(C)CCCN(C)C(=O)[C@H](CCCCNC(=O)[C@H](CC(C)C)NC(=O)C2OC2C(=O)O)NC(=O)CN2CCN(CC(=O)[O-])CCN(CC(=O)[O-])CCN(CC(=O)[O-])CC2)cc1C(C)C.[177Lu+3] (mixture of isomers)			mouse, HT-29 xenograft, muscle	24 h post injection		tissue uptake	0.41 %ID/g
Cc1ncsc1-c1ccc(C(C)NC(=O)C2CC(O)CN2C(=O)C(NC(=O)CCCCCCCCCCN2CCCC(Nc3ncc(Cl)c(Nc4ccccc4S(=O)(=O)C(C)C)n3)C2)C(C)(C)C)cc1 (stereo not drawn)	22Rv1	RNA-seq, measured: ZBED5 mRNA		concentration not given	reference: DMSO	log2 fold change	-1.25
C=C(NC(=O)c1csc(-c2nc3c(cc2O)-c2nc(cs2)C(=O)NC(C(C)O)C(=O)NC(=C(C)OC)c2nc(cs2)C(=O)NC2c4nc(cs4)C(=O)NC(COC(=O)c4c5c6c(cccc6n4O)COC(=O)C(OC4CC(C)(O)C(N(C)C)C(C)O4)C2OC5)c2nc-3cs2)n1)C(N)=O (stereo not drawn)			female cynomolgus monkey, plasma	intravenous, 9 mg/kg, single dose, infusion		Cmax	36100 ng/mL
CCCC[C@H](NC(=O)CNC(=O)CNC(=O)[C@H](CCCCNC(=O)[C@H](CC(=O)O)NC(=O)C(C)c1ccc(CC(C)C)cc1)NC(=O)CN1CCN(CC(=O)O)CCN(CC(=O)O)CCN(CC(=O)O)CC1)C(=O)N[C@H]1CC(=O)NCCCC[C@@H](C(N)=O)NC(=O)[C@H](Cc2c[nH]c3ccccc23)NC(=O)[C@H](CCCNC(=N)N)NC(=O)[C@@H](Cc2ccccc2)NC(=O)[C@H](Cc2c[nH]cn2)NC1=O (stereo partly drawn) [lutetium-177 labelled]			C57 mice, tumour-bearing, skin	intravenous, 0.037 MBq, 24 h		tissue uptake	0.56 ± 0.28 %ID/g
Cc1cc(C)n(CCN(CCN)CCCCCCNC(=O)[C@@H](N)Cc2c[nH]cn2)n1.[99Tc+].[C-]#[O+].[C-]#[O+].[C-]#[O+]			BALB/c nude mice, A549 xenograft, heart	intravenous, 15 min		tissue uptake	1.23 ± 0.16 %IA/g
COC1CN([C@H]2CC[C@H]([C@@]3(C)Oc4c(Cl)cc(C(=O)NCc5c(SC)cc(C)[nH]c5=O)c(C)c4O3)CC2)C1		RNA-seq, measured: PRSS23 mouse homolog	mouse, HT-1376 xenograft, whole blood	dose not given	reference: vehicle	log2 fold change	1.06
O=C([O-])CN1CCN(CC(=O)[O-])CCN(CC(=O)NC[C@H]2CC[C@H](C(=O)N[C@H](Cc3cnc4ccccc4c3)C(=O)NCCCC[C@H](NC(=O)N[C@@H](CCC(=O)O)C(=O)O)C(=O)O)CC2)CCN(CC(=O)[O-])CC1.[64Cu+2]		ex vivo gamma counting	22Rv1 tumour-bearing mice, kidney	intravenous, 0.74 MBq, 2 h post-injection		tissue uptake	96 %ID/g
